Assay results gathered from unrelated publications.
Each numbered part is a random draw from the data of one study; scales do not carry over between parts. Substitutions count along the parent as printed.
Sequence of UniProt Q9UM73 (whole entry, looked up): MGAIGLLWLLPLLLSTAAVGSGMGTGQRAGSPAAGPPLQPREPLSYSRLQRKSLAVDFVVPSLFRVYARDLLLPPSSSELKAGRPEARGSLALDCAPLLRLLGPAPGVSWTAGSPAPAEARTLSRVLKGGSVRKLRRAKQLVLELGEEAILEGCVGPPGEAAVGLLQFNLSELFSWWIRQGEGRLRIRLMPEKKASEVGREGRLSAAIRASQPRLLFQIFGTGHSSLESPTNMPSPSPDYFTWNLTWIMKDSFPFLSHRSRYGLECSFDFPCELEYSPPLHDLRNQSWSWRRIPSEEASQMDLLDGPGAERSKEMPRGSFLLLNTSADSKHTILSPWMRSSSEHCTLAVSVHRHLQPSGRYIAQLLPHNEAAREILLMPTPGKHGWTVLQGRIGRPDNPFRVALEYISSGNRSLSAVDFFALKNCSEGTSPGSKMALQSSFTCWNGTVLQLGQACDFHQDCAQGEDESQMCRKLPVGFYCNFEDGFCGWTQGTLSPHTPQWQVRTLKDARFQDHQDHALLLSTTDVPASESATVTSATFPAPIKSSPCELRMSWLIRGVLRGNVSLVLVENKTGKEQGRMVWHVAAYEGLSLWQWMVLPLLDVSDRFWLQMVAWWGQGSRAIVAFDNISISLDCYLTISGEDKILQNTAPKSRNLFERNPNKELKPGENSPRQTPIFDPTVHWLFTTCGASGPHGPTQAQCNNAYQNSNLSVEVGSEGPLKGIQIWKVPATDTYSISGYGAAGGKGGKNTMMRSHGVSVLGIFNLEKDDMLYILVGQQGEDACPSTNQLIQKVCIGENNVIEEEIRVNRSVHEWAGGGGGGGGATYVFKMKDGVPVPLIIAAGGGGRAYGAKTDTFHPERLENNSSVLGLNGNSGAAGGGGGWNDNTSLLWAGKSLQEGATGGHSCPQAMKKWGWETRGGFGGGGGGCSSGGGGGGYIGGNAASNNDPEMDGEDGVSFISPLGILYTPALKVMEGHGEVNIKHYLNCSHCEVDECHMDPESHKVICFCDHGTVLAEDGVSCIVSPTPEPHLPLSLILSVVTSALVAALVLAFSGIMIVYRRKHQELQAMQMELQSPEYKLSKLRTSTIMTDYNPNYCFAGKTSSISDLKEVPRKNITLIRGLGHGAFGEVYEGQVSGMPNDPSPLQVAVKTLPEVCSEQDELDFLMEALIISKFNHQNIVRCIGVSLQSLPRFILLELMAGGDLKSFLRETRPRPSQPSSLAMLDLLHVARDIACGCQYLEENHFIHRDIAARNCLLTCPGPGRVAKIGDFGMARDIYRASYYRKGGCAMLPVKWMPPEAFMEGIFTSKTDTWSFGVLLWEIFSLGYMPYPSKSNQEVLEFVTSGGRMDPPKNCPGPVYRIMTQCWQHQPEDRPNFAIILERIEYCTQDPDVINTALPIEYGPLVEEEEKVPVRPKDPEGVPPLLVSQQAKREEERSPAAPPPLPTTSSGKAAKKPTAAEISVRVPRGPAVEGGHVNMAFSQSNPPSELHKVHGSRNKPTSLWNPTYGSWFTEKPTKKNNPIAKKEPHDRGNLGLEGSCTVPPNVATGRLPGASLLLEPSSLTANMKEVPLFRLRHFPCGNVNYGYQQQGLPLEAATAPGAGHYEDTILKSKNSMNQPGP
Sequence of UniProt Q12851 (whole entry, looked up): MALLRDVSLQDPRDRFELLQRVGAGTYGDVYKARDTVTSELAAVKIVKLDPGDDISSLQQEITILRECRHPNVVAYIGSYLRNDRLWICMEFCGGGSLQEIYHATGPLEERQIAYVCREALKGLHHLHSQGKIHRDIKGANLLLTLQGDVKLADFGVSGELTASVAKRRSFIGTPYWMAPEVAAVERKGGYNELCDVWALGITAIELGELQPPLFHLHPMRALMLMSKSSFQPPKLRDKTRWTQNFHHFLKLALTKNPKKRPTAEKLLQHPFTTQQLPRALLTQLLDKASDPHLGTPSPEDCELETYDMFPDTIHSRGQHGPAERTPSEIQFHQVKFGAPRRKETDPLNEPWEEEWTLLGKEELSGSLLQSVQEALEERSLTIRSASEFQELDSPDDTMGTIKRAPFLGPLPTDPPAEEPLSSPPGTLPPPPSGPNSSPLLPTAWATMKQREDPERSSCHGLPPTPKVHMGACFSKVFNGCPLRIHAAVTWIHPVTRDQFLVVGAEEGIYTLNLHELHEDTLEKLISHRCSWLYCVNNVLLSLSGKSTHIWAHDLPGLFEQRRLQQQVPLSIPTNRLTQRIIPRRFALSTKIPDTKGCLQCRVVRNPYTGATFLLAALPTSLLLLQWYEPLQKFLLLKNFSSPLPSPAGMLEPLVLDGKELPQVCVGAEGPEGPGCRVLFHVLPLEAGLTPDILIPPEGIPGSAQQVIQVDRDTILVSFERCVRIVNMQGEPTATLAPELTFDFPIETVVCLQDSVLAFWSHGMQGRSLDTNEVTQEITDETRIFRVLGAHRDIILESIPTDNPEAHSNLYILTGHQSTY

Block 1 — method: protein-binding microarray; molecule type: double-stranded DNA, one strand shown; sample: in vitro; tested at: 940 nM top; notes: 60-bp whole probe; added: salmon DNA 0.4 mg/ml; reference: random background probes; direction: higher = stronger binding; constant ends, left off below: GCCTAGCAC … GTCTTGATTCGCTTGACGCTGCTG
Target: Interferon regulatory factor 5, full length, phosphomimetic (IRF5, Homo sapiens, UniProt Q13568-2, residues 1-514, S451D/S453D/S456D/S462D)
Oligonucleotide | fitted relative affinity [z-score]
GTGTGCATCTATCTTAAATAGTGCTAG | -0.187
TTAGGTATAGGACTGGGTTAGTGCTAG | -0.125
TTAGGTAACCTTTTCCTTTAGTGCTAG | -0.0153
GACGGTATCCTTTTCGTGACGTGCTAG | 0.663
CTTTTTTTTTTTTTCTGATCGTGCTAG | 0.878
TCATATTTACTCTCTACAACTGTGCTA | 1.85
TTAAGAATGTTTTTCATTGTGTGCTAG | -0.193
TTTGGACTGGGGTATCGGTTAGTGCTA | 2.84

Block 2 — target: ATF2, bZIP domain (human); method: DHFR protein complementation; sample: yeast; reference: wild-type JUN-FOS pair; direction: higher = stronger binding
Notes: single substitutions, most at no-binding floor
Starting sequence: JUN, bZIP domain (human); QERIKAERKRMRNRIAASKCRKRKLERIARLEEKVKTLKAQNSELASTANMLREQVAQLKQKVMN; partner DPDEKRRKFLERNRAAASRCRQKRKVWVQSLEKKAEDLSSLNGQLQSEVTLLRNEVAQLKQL
Variant | binding fitness
R53L | -1.57 natural log
T48K | -1.29 natural log
K39D | -1.46 natural log
A29Y | -1.37 natural log
L31N | -1.48 natural log
M51V | -1.34 natural log
A46V | -1.33 natural log
A49Q | -1.52 natural log

Further values, each from its own experiment
SMILES | target | test | conditions | how to read | quantity | value
COc1ccc(Cl)cc1NC(=O)Nc1cc(C)nc2ccccc12 | MAP4K2 (Homo sapiens, UniProt Q12851) | enzyme activity, inhibitor | 0.5 µM | reference: control | remaining activity | 114%
COc1cc(-c2cn(C3CCc4c(F)cccc4N(CC(F)(F)F)C3=O)nn2)ccc1-n1cnc(C)c1 (stereo not drawn) | ALK (Homo sapiens, UniProt Q9UM73) | cell-free assay, competition with immobilised ligand | 1 µM |  | remaining binding | 100%

For quick reference, copied from above (block 1):
Oligonucleotide | fitted relative affinity [z-score]
TTAAGAATGTTTTTCATTGTGTGCTAG | -0.193
